Experimental data of several laboratories.
Numbered parts are unrelated; each lists some results of a single study. Substitutions count along the parent as printed.

Set 1
Target: PABPC1L2, full length, GST fusion (mouse, UniProt A0ABA7IW68)
Method: RNAcompete
Form: RNA
Medium: in vitro
Concentration: 20 nM
Setting: 7-mer, probes averaged, single round
Relative to: mean of 7-mers
Direction: higher = stronger binding
Endpoint: 7-mer Z-score
Residues (chain): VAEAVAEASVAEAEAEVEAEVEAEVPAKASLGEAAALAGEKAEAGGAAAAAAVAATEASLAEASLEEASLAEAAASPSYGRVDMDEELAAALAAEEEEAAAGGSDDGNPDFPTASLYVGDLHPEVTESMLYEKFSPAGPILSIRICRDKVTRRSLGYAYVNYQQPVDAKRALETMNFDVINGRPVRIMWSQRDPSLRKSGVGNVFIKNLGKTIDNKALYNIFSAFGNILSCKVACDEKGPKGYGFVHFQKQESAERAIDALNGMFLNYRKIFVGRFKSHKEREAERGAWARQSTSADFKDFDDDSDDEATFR
GCGAUGU: -0.217
AAGUCUC: 0.0696
ACGACGG: 0.0768
GAGGUCA: -0.0319
AAGCCCA: -0.144
AGGCCGA: 0.14
UCGCUCU: -0.38
GCUUCGG: -0.264
CGGCGUA: -0.171
GGACAUC: 0.102
CAAUAAA: 3.31
CAGAACG: 0.017
GCUUAAA: 0.419
GACCGGU: -0.248
GGGAAUC: 0.0678
UGGUGUA: 0.126
AUCUAGG: -0.0228
CGCGCAA: -0.242

Set 2
Target: Histone acetyltransferase KAT6A, winged helix 1, GST fusion (KAT6A, Homo sapiens, UniProt Q92794, residues 1-85)
Method: protein binding microarray
Form: double-stranded DNA, one strand shown
Medium: in vitro
Concentration: not given
Setting: 8-mer, flanks averaged, mean of 2 arrays, mostly near background
Relative to: not given
Direction: higher = stronger binding
Endpoint: E-score
Construct (chain): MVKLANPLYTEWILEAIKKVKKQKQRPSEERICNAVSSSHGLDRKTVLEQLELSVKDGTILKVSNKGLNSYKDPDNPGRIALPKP
CAACTCAA: -0.247
CGCTGTGA: 0.0555
AGCCGGTC: 0.16
GAGGGTAA: -0.17
ATTCTAAA: -0.165
TAGGAGAA: -0.225
CGTTTTTC: 0.0244
GGGTTGGA: -0.0569
TAACAGTA: -0.0173
CAGCGGAG: 0.0995
ACTCCTAT: -0.191
CCGACACC: 0.198
AAAGCCTG: -0.0936
ACTTCTTC: -0.134
AGTTGCCG: 0.199
TAGTAAGA: -0.0564
GATCCGAA: -0.155
CTATACCA: -0.129

Set 3
Target: CCNA2, cyclin fold, Cln2 fusion (human)
Method: yeast growth competition, sequencing
Medium: yeast
Setting: weak parent motif
Relative to: not given
Direction: higher = stronger binding
Endpoint: normalised enrichment score
Starting sequence: WEE2 docking peptide (human); KELRQKLNFSYCE
KELRQALNFSYCE [K6A]: 0.365
KELRQKLAFSYCE [N8A]: 0.532
KELAQKLNFSYCE [R4A]: -0.2
KELRQKANFSYCE [L7A]: 0.287
KEARQKLNFSYCE [L3A]: 2.91
KALRQKLNFSYCE [E2A]: 1.47
KELRQKLNASYCE [F9A]: 0.661

Set 4
Target: Hepatocyte nuclear factor 3-alpha (Foxa1, Mus musculus, UniProt P35582, residues 1-468, full length assumed)
Method: EMSA with sequencing
Form: double-stranded DNA, one strand shown
Medium: in vitro
Concentration: 10 and 20 nM
Setting: whole designed probe, mean of two concentrations, ends assumed
Relative to: negative control set to 0
Direction: higher = stronger binding
Endpoint: normalised bound fraction
Constant ends, left off below: GTGAGCGGTGCCCATTGATGGGGAAC … TTTCACTGGGATCGTGGGGAC
Target sequence (chain): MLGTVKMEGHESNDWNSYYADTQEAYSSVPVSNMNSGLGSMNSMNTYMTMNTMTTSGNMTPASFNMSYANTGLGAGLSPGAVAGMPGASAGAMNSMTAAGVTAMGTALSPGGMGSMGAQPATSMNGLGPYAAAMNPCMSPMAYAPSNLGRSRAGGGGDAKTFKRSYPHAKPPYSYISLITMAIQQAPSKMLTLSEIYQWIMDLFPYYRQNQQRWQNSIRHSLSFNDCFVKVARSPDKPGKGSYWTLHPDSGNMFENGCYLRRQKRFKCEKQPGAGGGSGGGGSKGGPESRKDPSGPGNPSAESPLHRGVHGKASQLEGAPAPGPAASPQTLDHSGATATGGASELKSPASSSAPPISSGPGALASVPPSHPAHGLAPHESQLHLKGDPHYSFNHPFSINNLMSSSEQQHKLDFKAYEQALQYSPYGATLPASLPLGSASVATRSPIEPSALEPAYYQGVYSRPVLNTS
ATCTTCCCCCTCTTCCTTGCCCCACCAGCTCACCTTCCCGGGTTATTTGCAGATAGGAAAATAAATAAAGCCGGCATTCGTTAACCCTCTTCTGGCGCAAACTGCTGTGCGTCAGTTTTGAATCATGGTCCTTTGGCGACGCCAGGCTCCGGGAGAGCAAAGCACCGTGTCAGGGCCATGATCCGGGGTGGCC: 0.324 ratio
ATCTTCCCCCTCTTCCTTGCCCCACCAGCTCACCTTCCCGGGTATCTGCAAATAAGTATTTATTTTCAAGCCGGCATTCGTTAACCCTCTTCTGGCGCAAACTGCACATTGGTCTGGATGAATCATGGTCCTTTGGCGACGCCAGGCTCCGGGAGAGCAAAGCACCGTGTCAGGGCCATGATCCGGGGTGGCC: 0.139 ratio
ATCTTCCCCCTCTTCCTTGCCCCACCAGCTCACCTTCCCGGGTTATTTGCAGATAGGAAAATAAATAAAGCCGGCATTCGTTAACCCTCTTCTGGCGCAAACTGCCAGAGCAAACAGATCTAACATGGTCCTTTGGCGACGCCAGGCTCCGGGAGAGCAAAGCACCGTGTCAGGGCCATGATCCGGGGTGGCC: 0.396 ratio
ATAAAGCTTTTCACCTGACGCAGGATAATAGCGAGTGCATGTGTGCTGGTTTGTTTACTGTGAGTCTCTCAGAGGAAATCATGTGCATCTGTCTGTTTACTTTTCCGTGGAACCTAGATGCTCACCTCTAAAAATAATCTTGCTCGGTGTTAGAGTTTCTGTGACACAGAGGTACATACCTCACATGCTCTCC: 0.488 ratio
TCCTCAGGCTAAAAGCCAGCAAAAAGAATCACCTGGCCAAACATCCCCTTTCAGTCTGCTTTCCTTAGAATGGCCTCCCAGGGGAGCTCTCTGGGCAATCTAAGCAGATGACCTAGTTTGAAGGCCTGGAAAATTATCATGTGAGTCACTGGGACAACAGAGCAAAGTGCCAGGCCCCTGAGAAACTGTAAGC: -0.0418 ratio

Set 5
Target: Centromere-binding protein 1, full length, His-tagged (CBF1, Saccharomyces cerevisiae, UniProt P17106, residues 1-351)
Sequence of UniProt P17106 (whole entry, looked up): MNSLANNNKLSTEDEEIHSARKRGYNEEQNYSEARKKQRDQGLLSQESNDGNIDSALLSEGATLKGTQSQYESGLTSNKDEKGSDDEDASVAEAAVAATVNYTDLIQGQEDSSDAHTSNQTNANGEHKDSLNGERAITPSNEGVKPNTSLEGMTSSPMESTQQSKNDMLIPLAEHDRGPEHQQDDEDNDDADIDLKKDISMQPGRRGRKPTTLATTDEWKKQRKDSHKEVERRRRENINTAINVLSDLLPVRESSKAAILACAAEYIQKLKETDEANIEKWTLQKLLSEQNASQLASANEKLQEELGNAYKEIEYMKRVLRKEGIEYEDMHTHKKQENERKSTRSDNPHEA
Method: competition protein-binding microarray
Form: double-stranded DNA, one strand shown
Medium: in vitro
Concentration: 2 µM
Setting: whole 60-bp probe, lowest competitor level
With: Pho4 competitor, 0.05 µM
Direction: higher = stronger binding
Endpoint: fluorescence intensity
Constant ends, left off below: … GTCTTGATTCGCTTGACGCTGCTG
GTCTTGTCTCATTGTGATGTGGGTGTCCCCACTTCA: 78.3 a.u.
AGACTGGGTCTCAGTCAGCTGAACAGAAAACTTCAA: 181 a.u.
CTTTCCCGATCTTGAGCCGTGGGTGTAGCACATTTG: 52.6 a.u.
CTTTCCCGATCTTGTCACGGGACTTTAGCACATTTG: 1330 a.u.
TGCGCAACAACTTGATAGGTGGGTGTATGTCTAGAA: 52.1 a.u.
GCGCTGCGCAATCTCAACGTGGTGAGGATCTTTGAA: 74.4 a.u.
TAGCAACGGAGAAAGCACGCTTGTAGAACCAACCTT: 80.6 a.u.
ACTCGCATGTTACCGTCCGTGACGGACTCCTTTGTG: 75.2 a.u.
CTAACAACAGAGACCCACATGGACGTTGGCGCAATT: 70.2 a.u.
TTGTTTTATTGCCTTCACGTTTATTAATGCTCAAAC: 125 a.u.
GGCCTTAACGGCAGCATCGTGGATTAACTTGGATTT: 70.3 a.u.
GTCTTGTCTCATTGCCTAGTGGGTGTCCCCACTTCA: 90.4 a.u.
CATCGCACCCTGACATTCGTGACAAAATAAGAACAA: 97.5 a.u.
TGGCGGCCGCCATCTCGCGTGAGATCGCCTTTGGAC: 61.8 a.u.
GGGCTGGATAGCCATCAGGTGCTGCACAGATTACTA: 108 a.u.
CTTCTGTAAATTTGCAGCGTGGGTGGACGCGCCCCG: 72.1 a.u.
AGAGCGTTCGCGTTTCTCGTGCCGAGTGCTTTTAAC: 76.1 a.u.
TAGAGCAAGAACTAGTTCGTGCCGAAGCTGAATCTT: 56.9 a.u.
CGCAGCGGCTGGCAGCATGTGCAGGATAATGATAAG: 157 a.u.

Some of these lines once more (set 2):
GAGGGTAA: -0.17
ATTCTAAA: -0.165
TAGGAGAA: -0.225
CGTTTTTC: 0.0244
GGGTTGGA: -0.0569
